Experimental data of several laboratories.
Numbered parts are unrelated; each lists some results of a single study. Positions count from the first letter of the parent shown.

Series 1
Target: Histone acetyltransferase KAT6A, winged helix 2, GST fusion (KAT6A, Homo sapiens, UniProt Q92794, residues 85-181)
Method: protein binding microarray
Molecule type: double-stranded DNA, one strand shown
Sample: in vitro
Tested at: not given
Setting: 8-mer, flanks averaged, mean of 2 arrays, mostly near background
Baseline: not given
Direction: higher = stronger binding
Measurement: E-score
Construct (chain): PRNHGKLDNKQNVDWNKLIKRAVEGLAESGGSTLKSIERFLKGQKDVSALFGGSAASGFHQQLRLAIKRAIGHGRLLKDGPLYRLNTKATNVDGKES
ATCCGAGC: 0.0251
AGCTAACC: -0.204
CTGGGTGA: 0.212
ATGCAATG: 0.0912
ACCATTAT: -0.135
AAGAGGCC: -0.0661
CTACTTAA: -0.195
CATGAATG: -0.25
CGATACGA: -0.0609
AAGCATCA: -0.0322
CGGATGCA: 0.0178
ATTGATGG: -0.0435
ATTACCGA: -0.101
GTCCACCA: -0.0166
CTGTGTAA: 0.141
GAAATCGA: -0.00764
AAAGTAAC: -0.09
ATCCCGTG: -0.0553
CCTATGGA: -0.149
GAACATAC: -0.157
AGGATAAG: -0.0318

Series 2
Target: Max-binding protein MNT, bHLH-zipper, MAX partner unstated (MNT, Homo sapiens, UniProt Q99583, residues 220-300)
Method: protein-binding microarray
Molecule type: double-stranded DNA, one strand shown
Sample: in vitro
Tested at: not given
Setting: k-mer, scored over probes, only values ≥0.25
Direction: higher = stronger binding
Measurement: E-score
Residues (chain): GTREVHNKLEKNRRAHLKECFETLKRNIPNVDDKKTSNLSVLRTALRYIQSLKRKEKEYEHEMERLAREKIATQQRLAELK
CGGACACG: 0.317
CATCCTCG: 0.277
CGTGCAAC: 0.402
CTGTGCGC: 0.317
GAGTGCAC: 0.312
ACGTGTAG: 0.419
GGAGTGCA: 0.269
ATGAGGTG: 0.254
CACACGCG: 0.449
AGTGCACG: 0.334
CCCACGAG: 0.424
ATGTGTTC: 0.259
ATGGGGAG: 0.272
CCATGCTC: 0.339
ACCCCACG: 0.321
CATGTTAC: 0.283
GCAAGCAC: 0.262
TGCCCACA: 0.253
CACTCCCC: 0.313
ACATGATC: 0.346
AGCATGCC: 0.384
ACGTGCCA: 0.444
ACGCTGAC: 0.288

Series 3
Target: Prothrombin, mature alpha-thrombin (F2, Homo sapiens, UniProt P00734)
Method: aptamer microarray, sandwich
Molecule type: DNA with 2'F-ANA
Sample: in vitro
Tested at: 200 nM
Setting: whole 15-mer aptamer, many near background
Together with: Cy3 exosite-II aptamer, 400 nM
Direction: higher = stronger binding
Measurement: mean fluorescence intensity
Sequence: GGTTGGTGTGGTTGG
2'F-ANA at 3 5 6 7 9 13: 80.8 a.u.
2'F-ANA at 5 8 9 10 12 13 15: 69.3 a.u.
2'F-ANA at 1 2 3 4 5 7 8 11 12 13 15: 70.6 a.u.
2'F-ANA at 1 5 6 7 11 13 14 15: 46.3 a.u.
2'F-ANA at 1 2 6 7 10 11 12 15: 64.1 a.u.
2'F-ANA at 1 3 7 8 9 11 12: 479 a.u.
2'F-ANA at 3 5 6 8 9 10 11 15: 76.2 a.u.
2'F-ANA at 2 5 6 8 9 15: 84.3 a.u.
2'F-ANA at 1 2 3 4 5 7 9 10 12 13 14: 46.6 a.u.
2'F-ANA at 1 3 6 7 8 10 11 14: 59.9 a.u.
2'F-ANA at 1 2 3 4 8 9 12: 407 a.u.
2'F-ANA at 1 2 3 4 7 10: 55.6 a.u.
2'F-ANA at 2 3 4 5 9 12 13: 133 a.u.
2'F-ANA at 3 4 5 6 8 9 11 14: 49.2 a.u.
2'F-ANA at 1 2 4 5 7 8 9 14 15: 46.8 a.u.
2'F-ANA at 1 3 5 6 9 10 11 13: 73.7 a.u.
2'F-ANA at 1 4 5 8 9 11 12 13: 77.9 a.u.
2'F-ANA at 4 5 6 7 11 12 15: 93.2 a.u.
2'F-ANA at 3 5 8 10 11 12: 87.3 a.u.
2'F-ANA at 2 4 5 7 9 14 15: 45.9 a.u.
2'F-ANA at 1 3 8 10 15: 86.6 a.u.
2'F-ANA at 1 3 5 6 8 10 11 14 15: 145 a.u.
2'F-ANA at 1 3 5 6 7 10 12 13 15: 49.3 a.u.
2'F-ANA at 1 2 3 5 6 8 11 12 15: 527 a.u.
2'F-ANA at 2 3 4 5 6 10 11 12 15: 60.2 a.u.

Series 4
Target: NFE2, bZIP domain (human)
Method: DHFR protein complementation
Sample: yeast
Setting: single substitutions, most at no-binding floor
Baseline: wild-type JUN-FOS pair
Direction: higher = stronger binding
Measurement: binding fitness
Starting sequence: JUN, bZIP domain (human); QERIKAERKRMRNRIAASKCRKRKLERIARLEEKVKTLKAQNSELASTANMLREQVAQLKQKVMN; partner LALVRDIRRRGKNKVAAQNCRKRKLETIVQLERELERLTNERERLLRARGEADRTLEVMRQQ
A49C: -1.38 natural log
T37M: -1.45 natural log
K36V: -1.43 natural log
V35G: -1.46 natural log
A29Y: -1.34 natural log
S47E: -1.38 natural log
A46D: -1.51 natural log
L45P: -1.48 natural log
A29W: -1.51 natural log
M51K: -1.38 natural log
S43H: -1.5 natural log
I28D: -1.5 natural log
T48V: -1.4 natural log
E44I: -1.53 natural log
K34A: -1.48 natural log
A46L: -1.39 natural log
A29R: -1.32 natural log
N42L: -1.47 natural log
A57R: -1.37 natural log

Series 5
Target: CCNA1, cyclin fold, Cln2 fusion (human)
Method: yeast growth competition, sequencing
Sample: yeast
Setting: weak parent motif
Baseline: not given
Direction: higher = stronger binding
Measurement: normalised enrichment score
Starting sequence: GMNC docking peptide (human); KNAKRNLSSEFAN; partner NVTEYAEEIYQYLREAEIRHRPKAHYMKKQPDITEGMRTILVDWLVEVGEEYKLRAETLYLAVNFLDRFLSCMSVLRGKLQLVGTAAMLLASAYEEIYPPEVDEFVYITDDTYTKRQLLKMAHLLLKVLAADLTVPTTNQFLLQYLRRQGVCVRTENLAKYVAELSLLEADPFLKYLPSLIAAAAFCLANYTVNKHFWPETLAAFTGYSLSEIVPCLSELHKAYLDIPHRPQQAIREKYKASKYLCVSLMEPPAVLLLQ
A3E: 0.204
R5F: -0.0372
L7E: 0.454
R5G: 0.00981
K4N: 0.0613
S8Q: 0.951
R5P: -0.119
E10A: -0.0957
S8F: 0.482
S8D: 0.506
A12D: 0.123
R5T: 0.324
L7M: 0.00818
L7W: 0.201
S9D: 0.482
A3S: 0.572
N6E: 0.432
S9F: 0.602
N6A: -0.0316
F11H: 0.00479
N2F: 0.875
K4Q: 0.253
F11T: 0.119
N2C: 0.394

Series 6
Target: Interferon regulatory factor 5, full length, phosphomimetic (IRF5, Homo sapiens, UniProt Q13568-2, residues 1-514, S451D/S453D/S456D/S462D)
Method: protein-binding microarray
Molecule type: double-stranded DNA, one strand shown
Sample: in vitro
Tested at: 940 nM top
Setting: 60-bp whole probe
Together with: salmon DNA 0.4 mg/ml
Baseline: random background probes
Direction: higher = stronger binding
Measurement: fitted relative affinity
All sequences stand within: GCCTAGCAC … GTCTTGATTCGCTTGACGCTGCTG
GACGGACTGGGTATCGGGATGTGCTAG: 0.987 z-score
GACGGTTTCGACACAGGGGACGTGCTA: 6.73 z-score
GACCATCTCAGTTTCGAGACGTGCTAG: 4.13 z-score
GACGAGTCCAGTTTCGAGACGTGCTAG: 4.68 z-score
TCAGATTTTTTTTCCTAACTGTGCTAG: 1.17 z-score
GACGGTCACGGTTTCGGGACGTGCTAG: 2.65 z-score
TCAAATTTCCCTCTCCCACTGTGCTAG: 0.944 z-score
TTAGATTTCAGTCTCGATCAGTGCTAG: 3.64 z-score
GACGATTCCAGTTACGAGACGTGCTAG: 0.156 z-score
GGCGGTATCGGGACTGGGGACGTGCTA: 3.31 z-score
TTAGGTCTCCTTATCTTTTAGTGCTAG: 0.643 z-score
CAAACACTAATTTTCAATTCGTGCTAG: 0.212 z-score
TCATATATACTATATGCAACTGTGCTA: 0.0458 z-score
GACGATTTCAGTTCCGAGAAGTGCTAG: 0.825 z-score
GCAAGAACAGCTGGTGGGCAGTGCTAG: -0.602 z-score
TTAGGTATCGACTTTCGCTTAGTGCTA: 5.44 z-score
TATAATTTTGTCATCTATAAGTGCTAG: 0.903 z-score
TTCTAAATATCTTTGTTGAAGTGCTAG: 0.277 z-score
TCAAATATATATATTATACTGTGCTAG: -0.011 z-score
AGCACTCCAGAGGCAGAGGCGTGCTAG: -0.47 z-score
TTAGAGATCGGGTTTCGATTAGTGCTA: 4.85 z-score
TCAAGATTTTTTTTCCTACTGTGCTAG: 0.865 z-score
GACAATATCAGTCTCGAGACGTGCTAG: 1.19 z-score
GACGGTTTCGACCCTGGGGACGTGCTA: 6.23 z-score
GACGGACTGGACTATCGGGATGTGCTA: -0.366 z-score

Repeated from above (series 1):
CATGAATG: -0.25
AGCTAACC: -0.204
AAGAGGCC: -0.0661
ATTGATGG: -0.0435
ATCCCGTG: -0.0553
AAGCATCA: -0.0322
CGGATGCA: 0.0178
GTCCACCA: -0.0166
CCTATGGA: -0.149
